Results collected from several papers.
Parts stem from different laboratories: compare values within a part only.
Chain of UniProt P10721 (whole entry, unmodified, looked up): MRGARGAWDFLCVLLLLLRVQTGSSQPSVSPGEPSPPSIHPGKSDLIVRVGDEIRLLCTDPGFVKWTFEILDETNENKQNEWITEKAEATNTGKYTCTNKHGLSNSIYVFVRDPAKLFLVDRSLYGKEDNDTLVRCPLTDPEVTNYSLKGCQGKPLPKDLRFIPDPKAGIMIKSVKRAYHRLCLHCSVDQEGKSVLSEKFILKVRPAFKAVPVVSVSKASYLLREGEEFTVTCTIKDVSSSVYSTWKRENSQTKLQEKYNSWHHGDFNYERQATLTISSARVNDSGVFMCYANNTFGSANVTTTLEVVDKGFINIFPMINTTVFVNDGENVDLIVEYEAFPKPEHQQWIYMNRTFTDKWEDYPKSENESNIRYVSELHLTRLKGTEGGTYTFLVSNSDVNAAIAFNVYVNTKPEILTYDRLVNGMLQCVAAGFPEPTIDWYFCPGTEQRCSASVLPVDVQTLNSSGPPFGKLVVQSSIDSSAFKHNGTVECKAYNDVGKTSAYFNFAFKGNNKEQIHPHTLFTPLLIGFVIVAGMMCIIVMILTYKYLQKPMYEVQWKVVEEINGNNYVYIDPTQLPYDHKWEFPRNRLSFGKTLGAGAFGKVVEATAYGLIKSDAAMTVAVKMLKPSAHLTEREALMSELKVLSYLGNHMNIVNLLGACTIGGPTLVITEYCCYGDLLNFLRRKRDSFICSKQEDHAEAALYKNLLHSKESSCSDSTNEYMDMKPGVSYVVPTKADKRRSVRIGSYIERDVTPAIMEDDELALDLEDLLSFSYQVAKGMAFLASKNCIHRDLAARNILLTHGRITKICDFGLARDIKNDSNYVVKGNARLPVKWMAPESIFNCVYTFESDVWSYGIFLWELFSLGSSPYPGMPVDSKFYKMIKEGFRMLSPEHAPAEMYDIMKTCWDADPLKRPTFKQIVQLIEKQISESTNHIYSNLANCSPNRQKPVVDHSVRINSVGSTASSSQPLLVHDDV
Chain of UniProt P00519 (whole entry, unmodified, looked up): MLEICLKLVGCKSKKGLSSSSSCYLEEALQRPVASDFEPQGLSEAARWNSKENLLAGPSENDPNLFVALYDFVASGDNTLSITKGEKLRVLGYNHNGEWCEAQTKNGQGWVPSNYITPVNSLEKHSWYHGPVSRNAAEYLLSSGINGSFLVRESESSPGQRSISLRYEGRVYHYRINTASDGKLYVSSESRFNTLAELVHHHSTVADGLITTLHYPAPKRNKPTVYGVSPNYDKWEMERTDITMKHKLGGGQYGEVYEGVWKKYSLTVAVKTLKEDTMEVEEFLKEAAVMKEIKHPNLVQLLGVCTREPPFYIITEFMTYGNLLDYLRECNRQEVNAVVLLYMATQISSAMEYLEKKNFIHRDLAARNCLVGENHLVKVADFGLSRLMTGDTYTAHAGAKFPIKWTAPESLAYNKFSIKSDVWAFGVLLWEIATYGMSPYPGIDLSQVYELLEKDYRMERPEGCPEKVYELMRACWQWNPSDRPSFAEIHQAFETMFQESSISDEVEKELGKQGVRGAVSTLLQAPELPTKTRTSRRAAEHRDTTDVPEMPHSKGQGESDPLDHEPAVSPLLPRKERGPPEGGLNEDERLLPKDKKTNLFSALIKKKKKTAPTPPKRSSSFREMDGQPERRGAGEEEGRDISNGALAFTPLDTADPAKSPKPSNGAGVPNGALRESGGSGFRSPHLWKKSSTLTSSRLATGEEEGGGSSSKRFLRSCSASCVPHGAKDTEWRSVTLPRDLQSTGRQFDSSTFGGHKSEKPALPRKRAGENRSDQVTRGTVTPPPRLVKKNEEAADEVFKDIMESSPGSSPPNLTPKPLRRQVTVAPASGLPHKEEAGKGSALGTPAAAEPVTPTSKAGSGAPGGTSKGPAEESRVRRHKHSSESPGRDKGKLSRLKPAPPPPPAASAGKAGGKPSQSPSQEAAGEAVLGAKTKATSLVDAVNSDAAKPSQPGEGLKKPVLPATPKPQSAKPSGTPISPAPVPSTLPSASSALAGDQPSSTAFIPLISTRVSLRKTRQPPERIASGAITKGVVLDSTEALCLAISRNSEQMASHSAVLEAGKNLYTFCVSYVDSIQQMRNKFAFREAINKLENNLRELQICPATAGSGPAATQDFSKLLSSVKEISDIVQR
Chain of UniProt Q96BR1 (whole entry, looked up): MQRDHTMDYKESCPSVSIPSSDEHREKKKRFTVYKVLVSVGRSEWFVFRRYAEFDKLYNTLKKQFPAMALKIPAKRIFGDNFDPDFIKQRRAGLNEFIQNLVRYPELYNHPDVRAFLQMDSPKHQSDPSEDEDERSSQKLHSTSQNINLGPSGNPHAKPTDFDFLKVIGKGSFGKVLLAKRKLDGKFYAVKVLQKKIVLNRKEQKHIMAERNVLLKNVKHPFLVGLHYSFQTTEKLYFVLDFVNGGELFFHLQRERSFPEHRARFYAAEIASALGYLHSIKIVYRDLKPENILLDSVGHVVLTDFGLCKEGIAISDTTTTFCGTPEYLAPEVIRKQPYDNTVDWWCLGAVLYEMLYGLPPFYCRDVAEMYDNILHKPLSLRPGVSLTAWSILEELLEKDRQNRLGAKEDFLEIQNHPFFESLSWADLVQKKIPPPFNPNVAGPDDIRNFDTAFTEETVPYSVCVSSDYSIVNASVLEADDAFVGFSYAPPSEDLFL
Chain of UniProt P27448 (whole entry, looked up): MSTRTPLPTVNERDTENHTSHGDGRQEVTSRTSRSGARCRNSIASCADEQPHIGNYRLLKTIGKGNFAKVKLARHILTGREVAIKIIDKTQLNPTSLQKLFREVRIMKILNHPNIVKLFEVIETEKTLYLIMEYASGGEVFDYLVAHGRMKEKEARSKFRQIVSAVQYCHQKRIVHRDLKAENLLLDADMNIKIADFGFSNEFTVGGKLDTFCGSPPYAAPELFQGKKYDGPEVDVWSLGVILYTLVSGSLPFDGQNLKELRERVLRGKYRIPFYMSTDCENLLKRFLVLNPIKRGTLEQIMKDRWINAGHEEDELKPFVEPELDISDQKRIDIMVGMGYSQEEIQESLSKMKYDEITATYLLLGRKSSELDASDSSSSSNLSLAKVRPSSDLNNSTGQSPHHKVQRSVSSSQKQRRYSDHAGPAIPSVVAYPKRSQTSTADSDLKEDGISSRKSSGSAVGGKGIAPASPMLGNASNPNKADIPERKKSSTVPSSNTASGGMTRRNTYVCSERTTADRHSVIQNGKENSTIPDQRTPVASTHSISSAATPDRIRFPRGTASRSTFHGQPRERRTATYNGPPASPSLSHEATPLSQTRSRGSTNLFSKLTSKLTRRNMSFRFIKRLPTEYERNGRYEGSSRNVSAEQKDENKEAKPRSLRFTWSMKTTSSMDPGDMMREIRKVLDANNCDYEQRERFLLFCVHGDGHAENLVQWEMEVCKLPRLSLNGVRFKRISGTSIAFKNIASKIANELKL

Study 1 — effect on: enzyme activity; action: inhibitor; tested at: 10 µM
Target: Calcium/calmodulin-dependent protein kinase type II subunit alpha (CAMK2A, Homo sapiens, UniProt Q9UQM7)
Chain of UniProt Q9UQM7 (whole entry, looked up): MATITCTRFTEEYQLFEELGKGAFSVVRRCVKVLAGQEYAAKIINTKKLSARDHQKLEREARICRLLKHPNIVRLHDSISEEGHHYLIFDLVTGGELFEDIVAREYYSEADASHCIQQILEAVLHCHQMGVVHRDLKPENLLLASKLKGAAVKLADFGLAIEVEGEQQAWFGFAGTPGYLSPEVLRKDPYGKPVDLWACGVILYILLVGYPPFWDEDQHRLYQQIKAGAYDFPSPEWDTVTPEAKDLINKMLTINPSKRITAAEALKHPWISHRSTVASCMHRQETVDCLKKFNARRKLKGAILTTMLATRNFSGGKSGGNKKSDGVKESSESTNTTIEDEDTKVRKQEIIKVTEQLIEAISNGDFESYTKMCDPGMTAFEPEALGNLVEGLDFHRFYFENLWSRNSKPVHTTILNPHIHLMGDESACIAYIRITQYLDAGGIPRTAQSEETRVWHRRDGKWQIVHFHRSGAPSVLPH
| Structure (SMILES) | inhibition [%] |
| --- | --- |
| C/C(=C\CC[C@@H](C)[C@H]1CC[C@@]2(C)C3=C(CC[C@]12C)[C@@]1(C)CCC(=O)C(C)(C)[C@@H]1CC3=O)C(=O)O | 35 |
| C[C@@H]1CC[C@]2(C(=O)O)CC[C@]3(C)C(=CC[C@@H]4[C@@]5(C)CC[C@H](O)C(C)(C)[C@@H]5CC[C@]43C)[C@@H]2[C@]1(C)O | -5 |
| COC(=O)CCc1ccccc1 | -4 |
| O=C1C[C@@H](c2ccc(O)cc2)Oc2cc(O[C@@H]3O[C@H](CO)[C@@H](O)[C@H](O)[C@H]3O)cc(O)c21 | 11 |
| NCCCCCC(=O)O | -16 |
| O=C(O)c1ccc2c(c1)C(=O)c1ccccc1C2=O | 3 |
| O=c1cc(CCc2ccccc2)oc2c1[C@H](O)[C@@H](O)[C@@H](O)[C@@H]2O | -4 |
| O=C(O)/C=C/c1cnc[nH]1 | -1 |
| C[C@H](O)C(=O)N[C@@H](Cc1ccccc1)C(=O)O | -30 |

Study 2 — tested at: 1 µM
Structure (SMILES): Cc1ccc(NC(=O)c2ccnc(C(F)(F)F)c2)cc1-c1cc(OCCO)nc(N2CCOCC2)c1
| target | method | setting | reference | remaining binding [%] |
| --- | --- | --- | --- | --- |
| CDC42BPA (Homo sapiens, UniProt Q5VT25) | competitive binding, scanMAX | MRCKA, 1000 nM | – | 100 |
| DAPK1 (Homo sapiens, UniProt P53355) | competitive binding panel | – | vehicle | 74 |
| MAPKAPK2 (Homo sapiens, UniProt P49137) | competitive binding panel | – | vehicle | 100 |
| DYRK1B (Homo sapiens, UniProt Q9Y463) | competitive binding panel | – | vehicle | 98 |
| LRRK2 (Homo sapiens, UniProt Q5S007, G2019S) | competitive binding panel | – | vehicle | 100 |
| CDK9 (Homo sapiens, UniProt P50750) | competitive binding panel | – | vehicle | 100 |
| EPHA8 (Homo sapiens, UniProt P29322) | competitive binding panel | – | vehicle | 92 |
| ABL2 (Homo sapiens, UniProt P42684) | competitive binding panel | – | vehicle | 99 |
| KIT (Homo sapiens, UniProt P10721) | competitive binding panel | – | vehicle | 92 |
| RIOK3 (Homo sapiens, UniProt O14730) | competitive binding panel | – | vehicle | 66 |

Study 3 — method: competition with immobilised ligand; tested at: 1 µM
Structure (SMILES): O=C(N[C@H]1CCCCC/C=C\C2C[C@@]2(C(=O)O)NC(=O)[C@@H]2C[C@@H](Oc3ccncc3)CN2C1=O)OC1CCCC1 (stereo partly drawn)
| target | effect on | remaining binding [%] |
| --- | --- | --- |
| MTOR (Homo sapiens, UniProt P42345) | cell-free assay | 100 |
| Tyrosine-protein kinase ABL1, non-phosphorylated (ABL1, Homo sapiens, UniProt P00519, F317L) | binding | 100 |
| MAP4K3 (Homo sapiens, UniProt Q8IVH8) | binding | 100 |
| MARK3 (Homo sapiens, UniProt P27448) | binding | 100 |
| STK33 (Homo sapiens, UniProt Q9BYT3) | binding | 89 |
| PRKAA2 (Homo sapiens, UniProt P54646) | cell-free assay | 71 |
| eIF-2-alpha kinase GCN2, C-terminal kinase domain (EIF2AK4, Homo sapiens, UniProt Q9P2K8, S808G) | binding | 100 |
| SGK3 (Homo sapiens, UniProt Q96BR1) | binding | 100 |
| TAOK2 (Homo sapiens, UniProt Q9UL54) | binding | 100 |
| STK36 (Homo sapiens, UniProt Q9NRP7) | binding | 85 |
| PRKCH (Homo sapiens, UniProt P24723) | cell-free assay | 91 |
| EGFR (Homo sapiens, UniProt P00533) | cell-free assay | 99 |
| MST1R (Homo sapiens, UniProt Q04912) | cell-free assay | 97 |
| KIT (Homo sapiens, UniProt P10721, V559D) | binding | 89 |

Study 4 — effect on: RNA clamping; method: fluorescence polarization; tested at: concentration not given; setting: mean of two replicates; with: FAM-labelled poly r(AG)8 RNA
Target: Eukaryotic initiation factor 4A-III (Homo sapiens, UniProt P38919)
Chain of UniProt P38919 (whole entry, looked up): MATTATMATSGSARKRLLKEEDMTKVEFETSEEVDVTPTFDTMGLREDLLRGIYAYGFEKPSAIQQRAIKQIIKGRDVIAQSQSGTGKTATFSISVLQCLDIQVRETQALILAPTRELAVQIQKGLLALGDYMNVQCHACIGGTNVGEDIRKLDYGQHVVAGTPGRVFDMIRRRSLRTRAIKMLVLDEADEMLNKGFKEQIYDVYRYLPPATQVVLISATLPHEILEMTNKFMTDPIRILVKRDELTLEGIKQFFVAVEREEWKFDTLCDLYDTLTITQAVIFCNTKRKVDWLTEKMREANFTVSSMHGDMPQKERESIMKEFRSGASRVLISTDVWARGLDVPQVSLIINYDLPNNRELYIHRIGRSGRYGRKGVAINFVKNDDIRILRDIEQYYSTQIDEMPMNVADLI
| Compound | fluorescence polarization change |
| --- | --- |
| COc1ccc([C@@]23Oc4cc(OC)cc(OC)c4[C@]2(OC)c2nc(-c4ccccc4)n(C)c(=O)c2[C@H]3c2ccccc2)cc1 | 1.6 mP |
| COc1ccc([C@@]23Oc4cc(OC)cc(OC)c4[C@@](O)(C2=O)[C@H](C(=O)N(C)OC)[C@H]3c2ccccc2)cc1 | 4.3 mP |
| CONC(=O)[C@H]1[C@@H](O)[C@@]2(O)c3c(OC)cc(F)cc3O[C@@]2(c2ccc(Br)cc2)[C@@H]1c1ccccc1 | 62.5 mP |
| C#CCOc1cc(OC)c2c(c1)O[C@@]1(c3ccc(OC)cc3)[C@H](c3ccccc3)c3c(nc4n(c3=O)CCC4)[C@@]21O | 11.4 mP |
| C#CCNC(=O)CCCn1c(-c2ccccc2)nc2c(c1=O)[C@@H](c1ccccc1)[C@]1(c3ccc(OC)cc3)Oc3cc(OC)cc(OC)c3[C@]21O | 8.3 mP |
| COc1ccc([C@]23Oc4cc(OC)cc(OC)c4[C@@]4(O[C@@H]5CCCN5C(=O)[C@@H]4[C@H]2c2ccccc2)[C@@H]3O)cc1 | -3 mP |
| COC(=O)[C@H]1C(=O)[C@@]2(NC34C[C@H]5C[C@@H](C3)C[C@@H](C4)C5)c3c(OC)cc(OC)cc3O[C@@]2(c2ccc(OC)cc2)[C@@H]1c1ccccc1 | 1.4 mP |
| COc1ccc([C@@]23Oc4cc(OC)cc(OC)c4[C@]2(O)[C@H](O)[C@H](C(=O)c2cc4cccc(OC)c4o2)[C@H]3c2ccccc2)cc1 | 4.5 mP |
| COC(=O)[C@@H]1[C@@H](c2ccccc2)[C@]2(c3ccc(OC)cc3)Oc3cc(OC)cc(OC)c3[C@@]23OC(c2cccc(OC)c2)=N[C@@]13O | -0.7 mP |

Excerpt of the above (study 1):
| Structure (SMILES) | inhibition [%] |
| --- | --- |
| O=C(O)c1ccc2c(c1)C(=O)c1ccccc1C2=O | 3 |
| C[C@@H]1CC[C@]2(C(=O)O)CC[C@]3(C)C(=CC[C@@H]4[C@@]5(C)CC[C@H](O)C(C)(C)[C@@H]5CC[C@]43C)[C@@H]2[C@]1(C)O | -5 |
| O=C(O)/C=C/c1cnc[nH]1 | -1 |
| C[C@H](O)C(=O)N[C@@H](Cc1ccccc1)C(=O)O | -30 |
